Measured values of several laboratories.
Parts stem from different laboratories: compare values within a part only. Positions count from the first letter of the parent shown.

Block 1
Target: ABI1, truncated, D143A, DHFR fusion (Arabidopsis thaliana)
Technique: DHFR PCA, deep sequencing
Sample: yeast
Setting: methotrexate growth selection, single substitutions
With: (+)-ABA 58 µM
Relative to: wild-type fitted maximum
Reading: higher = stronger binding
Quantity: relative binding score
Starting sequence: PYL1, truncated, DHFR fusion (Arabidopsis thaliana); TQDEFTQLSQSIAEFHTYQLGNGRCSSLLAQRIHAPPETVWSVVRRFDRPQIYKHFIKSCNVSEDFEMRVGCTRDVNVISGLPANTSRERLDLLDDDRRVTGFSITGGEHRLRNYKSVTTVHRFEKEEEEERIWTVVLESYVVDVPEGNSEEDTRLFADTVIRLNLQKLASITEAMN
T160W: 56.9%
T39I: 92.1%
N61H: 87.5%
D92F: 15.8%
E4Q: 79.6%
N177I: 80.3%
T135W: 4.73%
V143F: 13.4%
Y53E: -1.49%
V161P: -8.85%
F66V: 75.6%
T120F: -0.297%
F47H: -4.87%
D96T: 23.1%
I162M: 18.9%
R98Q: 84%
L169P: 13.3%
V118R: 95.2%
I133G: 97.4%

Block 2
Target: Interferon regulatory factor 3, full length, phosphomimetic (IRF3, Homo sapiens, UniProt Q14653, residues 1-427, S386D/S396D/S398D/S402D/T404D/S405D)
Technique: protein-binding microarray
Molecule type: double-stranded DNA, one strand shown
Sample: in vitro
Tested at: 2540 nM top
Setting: 60-bp whole probe
With: salmon DNA 0.4 mg/ml
Relative to: random background probes
Reading: higher = stronger binding
Quantity: fitted relative affinity
Constant ends, left off below: GCCTAGCAC … GTCTTGATTCGCTTGACGCTGCTG
Residues (chain): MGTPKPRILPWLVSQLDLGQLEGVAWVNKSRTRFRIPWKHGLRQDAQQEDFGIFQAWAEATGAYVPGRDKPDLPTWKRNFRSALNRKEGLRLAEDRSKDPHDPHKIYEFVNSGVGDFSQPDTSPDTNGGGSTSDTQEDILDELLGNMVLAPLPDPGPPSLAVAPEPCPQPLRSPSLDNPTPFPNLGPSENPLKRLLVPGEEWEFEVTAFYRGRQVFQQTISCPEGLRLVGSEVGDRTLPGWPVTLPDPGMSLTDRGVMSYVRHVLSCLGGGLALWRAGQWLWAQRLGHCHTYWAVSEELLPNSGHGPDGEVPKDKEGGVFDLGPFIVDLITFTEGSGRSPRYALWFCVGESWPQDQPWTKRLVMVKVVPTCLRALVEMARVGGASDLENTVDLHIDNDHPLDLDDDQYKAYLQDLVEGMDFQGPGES
ACTCTTCTTTTTTTTCTTTAGTGCTAG: 2.14 z-score
GACGTTTTCGGTCTCGGGACGTGCTAG: 5.01 z-score
TGAGGTATCGGTCTCGGTTAGTGCTAG: 4.07 z-score
TCTCTGCTACCCTTTGAAAGTGTGCTA: 0.129 z-score
GACGGTATCCTACTGCTGACGTGCTAG: 2.68 z-score
AAGCCATTGGTCTTCACTTGGTGCTAG: -0.917 z-score
TTAGGTTTCGGTTACGGTTAGTGCTAG: 8.13 z-score
TTTGACATCTTCATCAACTAGTGCTAG: 0.251 z-score
GACGGTATCCTAATGCTGACGTGCTAG: 4.1 z-score
TCACATACTAATTTCCAACTGTGCTAG: 1.43 z-score
GACGGTTTCGACTTTGGGGACGTGCTA: 3.63 z-score
TTAGAACTGGGGTATCCATTAGTGCTA: -0.147 z-score
ATCATTCTCACTGCAGCCTTGTGCTAG: 1.16 z-score
TTAGGTTTCTACTATCGGTTAGTGCTA: 1.31 z-score
TCACCTTTTGCTTTACTACTGTGCTAG: 2.65 z-score
TCAGTTTTCACTTTTCCACTGTGCTAG: 3.93 z-score
TCACAACTCGCCTTTTTTACTGTGCTA: 1.43 z-score
AACGGTTTCCTTTCCCTGACGTGCTAG: 10.3 z-score
TTAGGATTCGGTCTCGGTTAGTGCTAG: 3.49 z-score
TTAAGTATCGGACTGGGTTAGTGCTAG: 1.38 z-score

Block 3
Target: Fragile X messenger ribonucleoprotein 1, C-terminal low-complexity region (Fmr1, Mus musculus, UniProt P35922)
Technique: RNA Bind-n-Seq
Molecule type: RNA
Sample: in vitro
Tested at: 200 nM
Setting: whole 134-nt RNA, ends assumed
With: 150 mM KCl
Relative to: input library
Reading: higher = stronger binding
Quantity: log2 enrichment
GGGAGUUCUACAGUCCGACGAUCUCCUGUGCUACACAUCGUAUGUACCGAAUCGGGUUUUUGGGUUUUUGGGGUUUUUGGGGAAAGUAUUAUGUUACGCCGUUCGGAUCUGCAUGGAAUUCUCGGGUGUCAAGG: 0.449
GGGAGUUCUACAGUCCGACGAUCCUGUGCUACACAUCGUAUGUACCGAAUCGGCCCCCCCGGGGCCCCCCCGGGGCCCCCCCGGAAAGUAUUAUGUUACGCCGUUCGGAUCUGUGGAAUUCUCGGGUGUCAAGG: -0.805
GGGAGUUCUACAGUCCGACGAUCAAGUCCUGUGCUACACAUCGUAUGUACCGAAUCGGGAAAGGGUUUUUUUGGGAGGGAAAGUAUUAUGUUACGCCGUUCGGAUCUGCACUUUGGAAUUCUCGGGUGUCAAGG: 0.738
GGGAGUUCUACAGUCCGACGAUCUCCUCAAGUCCUGUGCUACACAUCGUAUGUACCGAAUCGGCGGGCGGGGCGGAAAGUAUUAUGUUACGCCGUUCGGAUCUGCACUUCCAGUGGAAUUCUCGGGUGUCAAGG: 0.339
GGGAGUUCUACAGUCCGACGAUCCCUGUGCUACACAUCGUAUGUACCGAAUCGGGCCCCCCCGGCCCCCCCGGCCCCCCCGGGAAAGUAUUAUGUUACGCCGUUCGGAUCUGCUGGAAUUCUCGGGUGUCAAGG: 0.0885
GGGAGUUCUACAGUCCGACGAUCUAAGGAUUCUAUCUGCUUACUGCUACAGACCUAUGUGUUAAGGAAUUCUUCUCCUCCUCCUUGCGUAGAAGUUGAUCAGCACUGUGGUCAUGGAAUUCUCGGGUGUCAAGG: 0.188
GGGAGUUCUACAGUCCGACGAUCCAAGUCCUGUGCUACACAUCGUAUGUACCGAAUCGGGGUUUGGGUUUGGUUUGGGAAAGUAUUAUGUUACGCCGUUCGGAUCUGCACUUCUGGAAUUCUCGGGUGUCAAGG: 0.035
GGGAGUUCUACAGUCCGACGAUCCUGUGCUACACAUCGUAUGUACCGAAUCGGGAAAAAAAGGGAAAAAAAGGAAAAAAAGGGGAAAGUAUUAUGUUACGCCGUUCGGAUCUGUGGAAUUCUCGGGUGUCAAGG: -0.964
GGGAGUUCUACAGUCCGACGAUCAAGUCCUGUGCUACACAUCGUAUGUACCGAAUCGGGCCCCGGCCCCGGGGCCCCGGAAAGUAUUAUGUUACGCCGUUCGGAUCUGCACUUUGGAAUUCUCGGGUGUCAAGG: -1.32
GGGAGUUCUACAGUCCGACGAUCCUCAAGUCCUGUGCUACACAUCGUAUGUACCGAAUCGGCCGGGGCCGGGCCGGGAAAGUAUUAUGUUACGCCGUUCGGAUCUGCACUUCCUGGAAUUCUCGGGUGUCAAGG: -0.211
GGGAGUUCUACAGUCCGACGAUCAAGUCCUGUGCUACACAUCGUAUGUACCGAAUCGGCCCCGGGGCCCCGGGGCCCCGGAAAGUAUUAUGUUACGCCGUUCGGAUCUGCACUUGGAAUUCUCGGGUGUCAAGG: -0.0567
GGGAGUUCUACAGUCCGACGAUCCUGUGCUACACAUCGUAUGUACCGAAUCGGUUUUUUUGGGUUUUUUUGGGGUUUUUUUGGGAAAGUAUUAUGUUACGCCGUUCGGAUCUGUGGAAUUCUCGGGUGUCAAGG: -0.762
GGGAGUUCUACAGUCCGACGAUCUAACUUUAGAGGAGGAUCAGAUGGAUAUGGCAGUGGACGUGGAUUUGGGGAUGGCUAUAAUGGGUAUGGAGGAGGACCUGGAGGUGGCAAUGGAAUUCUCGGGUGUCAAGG: 0.189
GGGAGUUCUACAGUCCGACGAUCUCCUCAAGUCCUGUGCUACACAUCGUAUGUACCGAAUCGGAGGGAGGAGGGAAAGUAUUAUGUUACGCCGUUCGGAUCUGCACUUCCAGCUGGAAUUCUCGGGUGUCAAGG: -0.166

Block 4
Target: RNA binding protein fox-1 homolog 2, RRM domain, GST-SBP tag (RBFOX2, Homo sapiens, UniProt O43251-10, residues 100-194)
Technique: RNA Bind-n-Seq
Molecule type: RNA
Sample: in vitro
Tested at: 365 nM
Setting: natural RNA segment, single round, ends assumed
Relative to: no-protein control
Reading: higher = stronger binding
Quantity: RBNS enrichment (R)
Target sequence (chain): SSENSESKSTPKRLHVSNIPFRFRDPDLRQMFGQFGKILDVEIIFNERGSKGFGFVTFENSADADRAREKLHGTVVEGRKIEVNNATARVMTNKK
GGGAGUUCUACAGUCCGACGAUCAACAGACUGUGUAGGAAAAAUCAGGAUUAAAGAGUGCUGCCUUUAUGGCUCCUUCUUCAGAAUAGGUGCAGACCCCUCCCCGUGCCCGUUCCCUGCCACCCGGGGUAAGGUGGAAUUCUCGGGUGCCAA: 0.553
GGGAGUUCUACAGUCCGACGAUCUUCUAAGUUGUGUUUAUUCCUGGAGUGACAUGCCACCCCGAAUGGCUCACUUUCACUGAGGAUGCUGUCCUCUGAUUUAGCUGCUGCCUCCAGCCUCUGGCUUGAGAACUUGGAAUUCUCGGGUGCCAA: 0.183
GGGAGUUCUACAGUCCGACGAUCACAAAGAAUGUAUACUCAUCUUUUUUGGCCCAUUACAAUACUGCUUUCUCAGGUUCUUAACAGCCUGUGCAAACUCCCUGACUAGAUGGUCUGUCACUCCUAUCAUUACCUGGAAUUCUCGGGUGCCAA: 0.309
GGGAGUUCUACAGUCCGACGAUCGACCUUUCAAAGCCAUUUUAGGCUGUUAGGGGCAGUGGAGGUAGAAUGACUCCUUGGGUAUUAGAGUUUCAACCAUGAAGUCUCUAACAAUGUAUUUUCUUCACCUCUGCUGGAAUUCUCGGGUGCCAA: 0.42
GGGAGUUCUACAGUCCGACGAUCGCUCUAGACAUGUCUCUUGGUGUGUGUUUUAUCUACUGGUGUUAUUCUAUAUGGUAGAAUUACCAAAAGCUAUUCAGAUUUCUUAAUAAAGGGCAAAUCAACCAAGCCUGUGGAAUUCUCGGGUGCCAA: 0.369
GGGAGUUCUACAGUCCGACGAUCACCCUUCCCCUAGUUUUGCUGAGUUAUUUGUUGUCCAGAACCUGUUGGCUAACCCCACUGAAGGCACAUUUCUAGAUGAUGCCGUGUGUGGUCAAUACAUUGCUUUCAUGUGGAAUUCUCGGGUGCCAA: 0.431
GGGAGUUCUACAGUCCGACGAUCAAAGCACUUGAUUAGUUUUUCAAGGCGUACCAUCACAAAGAUGCUUUCCUGCAGAGUUCUUUGUAUCAACAGCCUAUGGUUGAGAUGUUUUCUCAUUUCCUGUAGAGAGAUGGAAUUCUCGGGUGCCAA: 0.302
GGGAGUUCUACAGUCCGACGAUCCAUUUUUGGCUUACUCAUGGACAAAGUUCUGUAUAUAGUAUAAAGUCAUUAACAAGAAACAGGAUAUGCUUUAAGACAGAAUUCACUGUCUGUUGCUUCAGUAAAAGGACUGGAAUUCUCGGGUGCCAA: 0.332
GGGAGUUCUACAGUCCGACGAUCAAGUGUGGAUGCAGAGAGGUGGAGCCCAGGAAGGGUCUCUGCUUAGGCUGCAGGGGUGCCAAUGGCAGAGGCACUGGUAGAGAUCAUUUGGACACUGGAGUUGAAAGUUAUGGAAUUCUCGGGUGCCAA: 1.52
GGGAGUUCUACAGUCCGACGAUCGGUGGCGCCUGCCCUGAGGCUGCCCUGCGAUGGCCUGGGUGGGAGAGCUGGGUCACCGGUGCCGAUGCUCUGGCCCUCCCCAAUACGCUGCUUCGUCCCACUGCACCGCCUGGAAUUCUCGGGUGCCAA: 0.374
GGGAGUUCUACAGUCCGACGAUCAUGCUUCCAACCCAAAGGCCUUUCAUCUCAAUAUCUGUCAAACUUGAAUAAUGUCUUCUCUUUAAUAUUCACAUAAGGCAGCCUAUUAACUGUGUCUUAGCAAUGUUGUAUGGAAUUCUCGGGUGCCAA: 0.574
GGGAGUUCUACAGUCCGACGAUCAAAUUCGCAUGUUUAAUGUGAACUCUCCCCUCCCCAUCUGUGUUCUAACUUAUUUAUAAAAAGAUGAUCGCUGUAUUUUGAGUUUCAGCUGGAAACUUCUGUAAGGGGCAUGGAAUUCUCGGGUGCCAA: 3.75
